Results from different studies.
Protocols differ between the studies behind these lines.

CNC(=O)c1ccc(-c2cnc3ncc(Cc4ccc5ncccc5c4)n3n2)cc1F — Tmax (median) (human, moderate hepatic impairment (Child-Pugh B), plasma; oral, 200 mg single dose): 1.25 h
Cc1c(Cl)c(C)[n+]([O-])c(Cl)c1-c1noc(-c2cc(O)c(O)c([N+](=O)[O-])c2)n1 — Tmax (median) (LC-MS/MS; healthy male human, fasted, plasma; oral, 50 mg single dose, tablet): 2 h
Nc1nc2[nH]cc(CCc3ccc(C(=O)N[C@@H](CCC(=O)O)C(=O)O)cc3)c2c(=O)[nH]1 — Tmax (human cancer patients, plasma; intravenous, dose not given, cycle 1 day 1, chemotherapy alone): 0.18 h
CNCc1ccc(-c2[nH]c3cc(F)cc4c3c2CCNC4=O)cc1 — Tmax (human; oral, 80 mg once daily, day 1, single dose, median): 1.5 h
CS(=O)(=O)Nc1ccc(C(=O)O[C@@H](Cc2c(Cl)c[n+]([O-])cc2Cl)c2ccc(OC(F)F)c(OCC3CC3)c2)cc1OCC1CC1 — tmax (human, plasma; inhaled, 800 µg single dose, single-dose dry powder inhaler): 2 h
CC[C@H](C)[C@H](NC(=O)[C@H](CC(C)C)NC(=O)[C@H](Cc1c[nH]c2ccccc12)NC(=O)[C@H](C)NC(=O)[C@@H](NC(=O)[C@H](Cc1ccccc1)NC(=O)[C@H](CC(=O)O)NC(=O)[C@H](CCCNC(=N)N)NC(=O)[C@H](C)NC(=O)[C@H](C)NC(=O)[C@H](CC(C)C)NC(=O)[C@H](C)NC(=O)[C@H](CC(=O)O)NC(=O)[C@H](CC(C)C)NC(=O)[C@@H](NC(=O)[C@@H](NC(=O)[C@H](C)NC(=O)[C@H](CC(C)C)NC(=O)[C@H](CCC(=O)O)NC(=O)[C@H](CO)NC(=O)[C@H](CO)NC(=O)[C@H](Cc1ccccc1)NC(=O)[C@@H](NC(=O)CNC(=O)[C@H](CCC(=O)O)NC(=O)CNC(=O)[C@@H](N)Cc1cnc[nH]1)[C@@H](C)O)[C@@H](C)O)[C@@H](C)CC)[C@@H](C)CC)C(=O)N[C@@H](C)C(=O)N[C@H](C(=O)N[C@@H](CCCCN)C(=O)N[C@H](C(=O)N[C@H](C(=O)N[C@@H](CC(=O)O)C(=O)N[C@@H](CCCCN)C(=O)N[C@@H](CCCCN)C(=O)N[C@@H](CCCCN)C(=O)N[C@@H](CCCCN)C(=O)N[C@@H](CCCCN)C(=O)N[C@@H](CCCCN)C(N)=O)[C@@H](C)O)[C@@H](C)CC)[C@@H](C)O — tmax (healthy human subjects, plasma; subcutaneous, 10 mg once weekly, day 36 after 6 doses, steady state, median): 0.53 h
CC(C)(C)OC[C@@H]1C(=O)NCCN1C(=O)C[C@H](N)Cc1cc(F)c(F)cc1F — Tmax at steady state (human; 20 mg once daily, day 10, median): 4 h
CCOc1cc([C@@H](CS(C)(=O)=O)N2C(=O)c3cccc(NC(C)=O)c3C2=O)ccc1OC — tmax (human, plasma; oral, 30 mg twice daily, steady state, median, with: methotrexate): 2 h
Cc1ccc(NC(=O)c2ccc(CN3CCN(C)CC3)cc2)cc1Nc1nccc(-c2cncc(-c3oncc3C)c2)n1 — Tmax (older healthy human adults, plasma; oral, 100 mg single dose, fed, mean): 4.33 h
CCOc1cc([C@@H](CS(C)(=O)=O)N2C(=O)c3cccc(NC(C)=O)c3C2=O)ccc1OC — tmax difference (healthy human, male, plasma; oral, 20 mg, with: ketoconazole multiple-dose; baseline: compound alone): 0.74 h
COc1ccnc(C[S+]([O-])c2nc3ccc(OC(F)F)cc3[nH]2)c1OC (centres unmarked) — Tmax (HPLC; human CYP2C19 intermediate metabolizers, plasma; oral, 40 mg/day, day 5, esomeprazole): 4 h

Excerpt of the above:
CCOc1cc([C@@H](CS(C)(=O)=O)N2C(=O)c3cccc(NC(C)=O)c3C2=O)ccc1OC — tmax (human, plasma; oral, 30 mg twice daily, steady state, median, with: methotrexate): 2 h
Cc1ccc(NC(=O)c2ccc(CN3CCN(C)CC3)cc2)cc1Nc1nccc(-c2cncc(-c3oncc3C)c2)n1 — Tmax (older healthy human adults, plasma; oral, 100 mg single dose, fed, mean): 4.33 h
